Measured values from different studies.
Compare with care: the assays were run in different laboratories. ± gives the spread as reported.
B1: CASP9 CARD domain (Homo sapiens, UniProt P55211); chain MDEADRRLLRRCRLRLVEELQVDQLWDALLSRELFRPHMIEDIQRAGSGSRRDQARQLIIDLETRGSQALPLFISCLEDTGQDMLASFLRTNRQAAKLS
UniProt P0AE52, sequence (whole entry, unmodified, looked up): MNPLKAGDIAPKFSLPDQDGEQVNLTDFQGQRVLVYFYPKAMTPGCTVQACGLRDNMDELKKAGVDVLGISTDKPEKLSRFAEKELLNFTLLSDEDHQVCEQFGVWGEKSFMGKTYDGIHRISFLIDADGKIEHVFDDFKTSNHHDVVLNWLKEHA

Molecule | target or system | test | system | conditions | scale | measurement | value
pegcetacoplan |  | measured: renal and urinary disorders | patients with PNH | dose not given, phase Ib trial |  | number of TEAEs | 3
adrenomedullin |  | RP-HPLC | HALO C18 column | 25 µM, formic acid/methanol, 25 min gradient |  | retention time | 14.6 min
bcp C50S/C99S (Escherichia coli) |  | UV-vis, measured: Cys45 |  | reduced, folded, numbering of the source |  | pKa | 6.16
glucagon |  | Congo red binding | 10 mM PBS | 172.2 µM, 64 h, pH 2.5 |  | Congo red signal | 1.71 µM
Pegcetacoplan |  | population PK model | human | subcutaneous |  | absorption rate constant, typical | 0.037 h⁻¹
insulin icodec |  | LOCI immunoassay | human, renal impairment trial, urine | subcutaneous | baseline: dose | intact drug excreted in urine | < 1%
oxyntomodulin |  | LC-MS/MS | human serum |  | baseline: human plasma | recovery | decreased
GSGAGICTIV | human MAGI1-3/6 PDZ construct (MBP fusion) | automated holdup | peptide, purified PDZ protein | concentration not given, unit not given | baseline: biotin control resin, higher = stronger binding | binding intensity | 0.0758
human insulin |  | population PK model | healthy human | subcutaneous, 15 IU, euglycaemic glucose clamp |  | absorption rate constant 2 | 0.86 h⁻¹
ACEQNPIYWARYADWLFTTPLLLLDLALLVDADEGT |  | ex vivo fluorescence imaging | peptide, BALB/c mice, 4T1 tumour-bearing, liver | intravenous, 5 nmol, 2 h post-injection | higher = more uptake | mean fluorescence intensity | 1670 ± 149 a.u.
Ubiquitin fragment (Homo sapiens) |  | NMR, measured: Lys33 |  |  |  | pKa | 10.9
insulin degludec |  |  | human | subcutaneous, 0.4 IU/kg, 2 FC level, single dose, reference formulation |  | AUC0−∞ | 623 ± 65 ng·h/mL
insulin aspart |  | ELISA | human, younger adults with type 1 diabetes, serum | subcutaneous, 0.2 U/kg |  | AUC(0-t) | 0.669 nM·h
CAMK2A C6S/C280S (Homo sapiens) |  | chemical modification, mass spectrometry, measured: Cys289 |  | 37 °C, apparent, reduced thiol |  | pKa | 9.2
human GAPDH |  | co-immunoprecipitation | human RBC membrane | DSSO crosslinker, unit not given, added: Band 3 peptide 1-56 bait | baseline: negative control | co-IP enrichment | 1270
insulin icodec |  |  | Chinese type 2 diabetes patients, serum | subcutaneous, once-weekly median |  | Tmax at steady state | 18 h
YEQDPWGVKWWY |  |  | peptide, mouse, CP model, serum | 0.154 µmol/kg, 4 weeks |  | serum AST | no effect
ACEEQNPWARYLEWLFPTETLLLEL |  | ex vivo fluorescence imaging | peptide, BALB/c mice, 4T1 tumour-bearing, muscle | intravenous, 5 nmol, 4 h post-injection | higher = more uptake | mean fluorescence intensity | 757 ± 34.9 a.u.
CAMK2A C6S/C289S (Homo sapiens) |  | chemical modification, mass spectrometry, measured: Cys280 |  | 37 °C, apparent, reduced thiol |  | pKa | 7.7
ACDDQNPWRAYLDLLFPTDTLLLDLLW |  | ex vivo fluorescence imaging | peptide, BALB/c mice, 4T1 tumour-bearing, liver | intravenous, 5 nmol, 2 h post-injection | higher = more uptake | mean fluorescence intensity | 1670 ± 410 a.u.
bcp (Escherichia coli, UniProt P0AE52) |  | UV-vis, measured: Cys45 |  | reduced, folded, numbering of the source |  | pKa | 5.76
human insulin |  | ELISA | pig, anaesthetized, serum | jejunal wall, 20 IU, robotic ingestible pill |  | Tmax | 2.32 ± 0.7 h
azu C112D/M121H (Pseudomonas aeruginosa) |  | UV-vis, measured: His121 |  | inferred, Cu(II) form presumed, numbering of the source |  | pKa | 8
B1 (CASP9 CARD domain) |  | NMR, measured: His38 |  |  |  | pKa | 6.03
Neuropeptide Y |  | RP-HPLC | HALO Peptide ES-C18 column | 25 µM, formic acid/methanol, 10 min gradient |  | retention time | 9.85 min
MTVCNASQRQAHAQATAVSL | H1975 lung adenocarcinoma | phage binding output/input | peptide |  | baseline: control phage | selectivity ratio | 3.4 ± 1.3
insulin icodec |  |  | Japanese patients with type 1 diabetes, serum | geometric mean |  | dose-normalised Cmax at steady state | 91.2 (nmol/L)/(U/kg)
GSGAGKETRV | human MAGI1-2/6 PDZ construct (MBP fusion) | automated holdup | peptide, crude extract | concentration not given, corrected by standard peak, unit not given | baseline: biotin control resin, higher = stronger binding | binding intensity | 0.435
insulin aspart |  | ELISA, measured: total insulin aspart | human, type 1 diabetes, serum | subcutaneous, dose not given, least squares mean, single dose |  | time to early 50 % Cmax | 25.4 min

Excerpt of the above:
Molecule | target or system | test | system | conditions | scale | measurement | value
GSGAGKETRV | human MAGI1-2/6 PDZ construct (MBP fusion) | automated holdup | peptide, crude extract | concentration not given, corrected by standard peak, unit not given | baseline: biotin control resin, higher = stronger binding | binding intensity | 0.435
Ubiquitin fragment (Homo sapiens) |  | NMR, measured: Lys33 |  |  |  | pKa | 10.9
ACDDQNPWRAYLDLLFPTDTLLLDLLW |  | ex vivo fluorescence imaging | peptide, BALB/c mice, 4T1 tumour-bearing, liver | intravenous, 5 nmol, 2 h post-injection | higher = more uptake | mean fluorescence intensity | 1670 ± 410 a.u.
ACEQNPIYWARYADWLFTTPLLLLDLALLVDADEGT |  | ex vivo fluorescence imaging | peptide, BALB/c mice, 4T1 tumour-bearing, liver | intravenous, 5 nmol, 2 h post-injection | higher = more uptake | mean fluorescence intensity | 1670 ± 149 a.u.
